{"data": "Assay results pooled from the literature", "note": "Compare with care: the assays were run in different laboratories. ± gives the spread as reported.", "sequence of UniProt P26718 (whole entry, looked up)": "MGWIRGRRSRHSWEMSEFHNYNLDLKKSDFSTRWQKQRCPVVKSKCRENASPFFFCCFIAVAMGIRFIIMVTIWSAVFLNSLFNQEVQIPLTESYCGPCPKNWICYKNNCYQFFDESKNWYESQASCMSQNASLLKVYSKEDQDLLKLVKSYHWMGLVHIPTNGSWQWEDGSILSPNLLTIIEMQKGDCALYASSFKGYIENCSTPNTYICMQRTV", "sequence of UniProt Q01827 (whole entry, looked up)": "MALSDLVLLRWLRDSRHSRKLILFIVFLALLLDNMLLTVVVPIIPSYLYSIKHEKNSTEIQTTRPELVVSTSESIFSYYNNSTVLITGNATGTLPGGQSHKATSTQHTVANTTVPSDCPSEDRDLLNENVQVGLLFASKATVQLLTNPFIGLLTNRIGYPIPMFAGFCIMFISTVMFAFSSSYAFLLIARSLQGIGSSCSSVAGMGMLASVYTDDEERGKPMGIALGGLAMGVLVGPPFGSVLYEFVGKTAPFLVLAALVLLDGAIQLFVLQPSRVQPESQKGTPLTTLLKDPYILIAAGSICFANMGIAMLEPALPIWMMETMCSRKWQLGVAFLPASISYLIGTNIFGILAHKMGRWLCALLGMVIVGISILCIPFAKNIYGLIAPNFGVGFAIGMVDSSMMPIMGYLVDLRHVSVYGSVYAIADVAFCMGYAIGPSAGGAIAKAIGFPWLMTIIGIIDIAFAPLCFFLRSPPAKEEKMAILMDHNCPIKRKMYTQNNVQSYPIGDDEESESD", "sequence of UniProt Q6TCG5 (whole entry, looked up)": "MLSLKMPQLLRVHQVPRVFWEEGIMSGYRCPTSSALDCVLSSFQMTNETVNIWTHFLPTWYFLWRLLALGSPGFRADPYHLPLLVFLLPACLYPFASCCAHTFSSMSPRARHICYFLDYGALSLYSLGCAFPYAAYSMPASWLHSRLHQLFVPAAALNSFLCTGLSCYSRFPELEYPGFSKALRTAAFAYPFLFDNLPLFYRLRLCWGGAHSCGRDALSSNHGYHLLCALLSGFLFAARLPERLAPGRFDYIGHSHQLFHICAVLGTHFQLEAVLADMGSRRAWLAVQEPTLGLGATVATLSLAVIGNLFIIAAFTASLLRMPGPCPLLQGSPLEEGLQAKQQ", "sequence of UniProt P21397 (whole entry, looked up)": "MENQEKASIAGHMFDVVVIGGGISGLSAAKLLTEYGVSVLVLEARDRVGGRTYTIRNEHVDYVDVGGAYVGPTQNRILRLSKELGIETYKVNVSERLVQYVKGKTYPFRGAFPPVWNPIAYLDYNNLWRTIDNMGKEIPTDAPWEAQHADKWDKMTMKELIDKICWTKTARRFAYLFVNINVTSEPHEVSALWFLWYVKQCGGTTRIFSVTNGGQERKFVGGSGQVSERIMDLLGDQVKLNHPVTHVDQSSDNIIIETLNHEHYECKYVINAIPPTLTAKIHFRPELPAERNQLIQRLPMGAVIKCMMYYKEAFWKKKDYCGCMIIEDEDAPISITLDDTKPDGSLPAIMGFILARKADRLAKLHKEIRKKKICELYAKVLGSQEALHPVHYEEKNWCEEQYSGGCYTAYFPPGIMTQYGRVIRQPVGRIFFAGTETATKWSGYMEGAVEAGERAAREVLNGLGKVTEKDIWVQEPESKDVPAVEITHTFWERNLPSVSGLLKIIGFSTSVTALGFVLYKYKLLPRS", "sequence of UniProt Q08499 (whole entry, looked up)": "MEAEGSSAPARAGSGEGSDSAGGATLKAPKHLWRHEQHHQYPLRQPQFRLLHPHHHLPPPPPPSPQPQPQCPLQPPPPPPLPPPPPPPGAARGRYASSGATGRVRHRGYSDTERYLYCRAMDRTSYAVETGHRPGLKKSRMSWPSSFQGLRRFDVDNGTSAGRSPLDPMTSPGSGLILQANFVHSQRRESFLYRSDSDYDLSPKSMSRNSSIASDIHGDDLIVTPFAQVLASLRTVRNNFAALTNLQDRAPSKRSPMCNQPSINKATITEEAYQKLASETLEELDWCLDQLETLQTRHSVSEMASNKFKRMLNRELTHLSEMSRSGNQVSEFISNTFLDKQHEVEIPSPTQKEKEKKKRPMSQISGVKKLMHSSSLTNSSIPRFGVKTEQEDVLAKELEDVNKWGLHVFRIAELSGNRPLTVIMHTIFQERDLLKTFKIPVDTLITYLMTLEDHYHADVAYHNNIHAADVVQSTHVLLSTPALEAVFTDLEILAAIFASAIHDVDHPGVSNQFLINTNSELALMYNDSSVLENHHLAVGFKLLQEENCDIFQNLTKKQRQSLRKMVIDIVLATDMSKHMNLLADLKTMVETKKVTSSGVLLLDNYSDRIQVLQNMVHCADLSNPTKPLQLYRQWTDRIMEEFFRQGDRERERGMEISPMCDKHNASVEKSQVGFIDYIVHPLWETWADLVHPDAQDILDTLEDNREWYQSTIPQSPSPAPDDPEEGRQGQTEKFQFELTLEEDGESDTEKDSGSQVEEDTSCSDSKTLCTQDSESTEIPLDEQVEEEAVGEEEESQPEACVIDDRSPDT", "sequence of UniProt P33535 (whole entry, looked up)": "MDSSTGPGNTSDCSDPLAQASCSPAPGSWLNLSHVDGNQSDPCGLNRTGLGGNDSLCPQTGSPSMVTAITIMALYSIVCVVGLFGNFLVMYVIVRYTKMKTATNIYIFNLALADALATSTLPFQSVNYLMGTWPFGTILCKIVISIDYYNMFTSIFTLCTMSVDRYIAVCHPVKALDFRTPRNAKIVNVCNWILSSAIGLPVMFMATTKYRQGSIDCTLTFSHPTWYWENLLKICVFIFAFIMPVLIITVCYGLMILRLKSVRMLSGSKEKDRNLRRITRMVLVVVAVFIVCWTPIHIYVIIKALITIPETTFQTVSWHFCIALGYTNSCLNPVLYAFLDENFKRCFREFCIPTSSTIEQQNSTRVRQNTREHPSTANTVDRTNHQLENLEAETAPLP", "sequence of UniProt O66465 (whole entry, looked up)": "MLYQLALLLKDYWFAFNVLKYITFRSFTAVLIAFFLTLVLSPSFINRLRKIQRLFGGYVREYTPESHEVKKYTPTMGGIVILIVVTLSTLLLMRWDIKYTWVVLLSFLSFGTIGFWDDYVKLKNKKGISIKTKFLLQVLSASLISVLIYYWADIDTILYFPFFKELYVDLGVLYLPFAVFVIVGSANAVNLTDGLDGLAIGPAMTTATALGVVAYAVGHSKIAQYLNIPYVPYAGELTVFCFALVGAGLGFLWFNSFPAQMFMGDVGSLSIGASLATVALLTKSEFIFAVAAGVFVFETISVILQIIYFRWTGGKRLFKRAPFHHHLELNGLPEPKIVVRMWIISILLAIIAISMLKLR", "sequence of UniProt P24524 (whole entry, looked up)": "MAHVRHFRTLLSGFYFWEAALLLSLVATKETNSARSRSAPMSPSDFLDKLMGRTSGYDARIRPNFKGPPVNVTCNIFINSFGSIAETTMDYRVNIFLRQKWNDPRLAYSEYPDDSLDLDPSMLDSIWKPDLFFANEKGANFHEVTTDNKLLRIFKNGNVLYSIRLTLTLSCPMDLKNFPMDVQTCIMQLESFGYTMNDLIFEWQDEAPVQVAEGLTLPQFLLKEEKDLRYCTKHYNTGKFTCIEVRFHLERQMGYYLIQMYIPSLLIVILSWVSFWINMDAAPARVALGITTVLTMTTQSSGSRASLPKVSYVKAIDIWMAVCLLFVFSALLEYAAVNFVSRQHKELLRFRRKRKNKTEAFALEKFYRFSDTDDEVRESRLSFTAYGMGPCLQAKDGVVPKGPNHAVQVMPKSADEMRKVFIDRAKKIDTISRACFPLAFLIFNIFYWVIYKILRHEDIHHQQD", "sequence of UniProt P54829 (whole entry, looked up)": "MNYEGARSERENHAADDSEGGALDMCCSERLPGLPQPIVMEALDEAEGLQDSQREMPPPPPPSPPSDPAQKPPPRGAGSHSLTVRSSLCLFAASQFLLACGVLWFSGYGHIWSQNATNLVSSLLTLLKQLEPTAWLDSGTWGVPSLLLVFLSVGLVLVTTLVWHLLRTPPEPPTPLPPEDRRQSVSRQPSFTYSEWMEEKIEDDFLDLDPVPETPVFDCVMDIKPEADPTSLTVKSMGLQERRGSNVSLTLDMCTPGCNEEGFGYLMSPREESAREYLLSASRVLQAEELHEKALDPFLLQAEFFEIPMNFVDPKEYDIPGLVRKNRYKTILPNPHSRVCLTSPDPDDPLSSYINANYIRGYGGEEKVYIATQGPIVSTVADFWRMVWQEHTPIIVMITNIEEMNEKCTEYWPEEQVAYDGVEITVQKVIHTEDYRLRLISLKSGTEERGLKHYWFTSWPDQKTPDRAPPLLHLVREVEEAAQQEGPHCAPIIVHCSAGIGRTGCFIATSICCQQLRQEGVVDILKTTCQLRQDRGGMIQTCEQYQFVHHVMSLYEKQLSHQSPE", "sequence of UniProt P11309 (whole entry, looked up)": "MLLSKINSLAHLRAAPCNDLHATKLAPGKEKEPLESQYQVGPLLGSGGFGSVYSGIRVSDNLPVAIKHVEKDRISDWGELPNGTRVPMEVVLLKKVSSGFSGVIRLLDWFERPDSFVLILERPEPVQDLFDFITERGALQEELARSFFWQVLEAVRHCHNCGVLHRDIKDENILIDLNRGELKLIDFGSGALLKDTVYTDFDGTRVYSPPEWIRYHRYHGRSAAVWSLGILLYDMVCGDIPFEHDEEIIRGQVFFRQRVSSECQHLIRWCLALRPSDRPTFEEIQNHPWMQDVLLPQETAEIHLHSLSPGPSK", "sequence of UniProt Q96GD4 (whole entry, looked up)": "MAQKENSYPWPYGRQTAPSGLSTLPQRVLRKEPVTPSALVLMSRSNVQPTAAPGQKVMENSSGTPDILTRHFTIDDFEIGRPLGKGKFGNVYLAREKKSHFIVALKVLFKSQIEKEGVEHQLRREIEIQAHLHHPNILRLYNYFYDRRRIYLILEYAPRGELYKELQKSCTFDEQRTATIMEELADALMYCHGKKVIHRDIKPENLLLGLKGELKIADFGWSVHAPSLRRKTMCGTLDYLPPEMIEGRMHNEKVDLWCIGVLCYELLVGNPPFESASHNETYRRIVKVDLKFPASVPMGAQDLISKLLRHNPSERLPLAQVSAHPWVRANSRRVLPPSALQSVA"}
{"Structure (SMILES)": "COC(=O)C1C(OC(c2ccc(Cl)cc2)c2ccc(Cl)cc2)CC2CCC1N2C (single isomer, unassigned)", "target": "rat 5-HT1 receptors", "assay": "binding, radioligand displacement", "conditions": "inactive if below 75% at 10000 nM, together with: [3H]5-HT", "quantity": "Ki", "value": "inactive"}
{"Structure (SMILES)": "C=C(C)[C@@H]1CCC(C)=C[C@H]1c1ccc(CCCCC)cc1O", "target": "Glra3 (Rattus norvegicus, UniProt P24524)", "assay": "glycine current, positive allosteric modulator, whole-cell patch clamp", "test system": "HEK293", "conditions": "1 µM", "quantity": "potentiation", "value": "989 ± 171%"}
{"Structure (SMILES)": "Cc1cc(Nc2nc(C[C@@]3(C(=O)O)CCN(Cc4cccc(Cl)c4F)[C@H](C)C3)cc(C)c2F)[nH]n1", "target": "Aurora kinase B (AURKB, Homo sapiens, UniProt Q96GD4)", "assay": "Western blot", "test system": "NCI-H446", "conditions": "up to 2 µM", "quantity": "phosphorylation inhibition", "value": "no inhibition"}
{"Structure (SMILES)": "O=[N+]([O-])c1ccc(OP(=O)(O)O)cc1", "target": "Alkaline phosphatase PafA (pafA, Elizabethkingia meningoseptica, UniProt Q9KJX5, T79S)", "assay": "substrate", "test system": "Chryseobacterium meningosepticum", "quantity": "Km", "value": "2.9 µM"}
{"Structure (SMILES)": "CN(C)C(=O)[C@@H](NC(=O)c1ccccc1-c1ccc(C(F)(F)F)cc1)c1cccc(C(F)(F)F)c1", "target": "NKG2-D type II integral membrane protein, with ULBP6 (KLRK1, Homo sapiens, UniProt P26718)", "assay": "cellular TR-FRET ligand displacement", "quantity": "lipophilic ligand efficiency", "value": "2.7 ± 1.1"}
{"Structure (SMILES)": "CNC(=S)N/N=C/c1ccc(OCc2ccccc2)cc1", "target": "MAOA (Homo sapiens, UniProt P21397)", "assay": "enzyme activity, inhibitor, absorbance", "conditions": "10 µM", "quantity": "remaining activity", "value": "91.1%"}
{"Structure (SMILES)": "CN1C(CCCc2ccccc2)CCC1CCCc1ccccc1 (stereo not drawn)", "target": "Slc18a2 (Rattus norvegicus, UniProt Q01827)", "assay": "dopamine uptake", "test system": "rat striatal synaptic vesicles", "conditions": "together with: [3H]dopamine", "quantity": "maximal inhibition", "value": "100%"}
{"Structure (SMILES)": "O=C(O)c1ccccc1-c1c2ccc(=O)c([As]3SCCS3)c-2oc2c([As]3SCCS3)c(O)ccc12", "target": "Ptpn11 (Mus musculus, UniProt P35235, C333P)", "test system": "E. coli lysate", "conditions": "up to 25 µM, C333P mutant, together with: pNPP 10 mM", "how to read": "baseline: untreated", "quantity": "phosphatase activity", "value": "no effect"}
{"Structure (SMILES)": "Nc1nc(Cl)nc2c1ncn2Cc1cc(OCC(F)F)cc(OC(F)F)c1", "target": "PDE4D (Homo sapiens, UniProt Q08499)", "how to read": "baseline: PDE8A1 IC50 over PDE4D2 IC50", "quantity": "selectivity ratio", "value": "499 fold"}
{"Structure (SMILES)": "CC[C@H](C)[C@H](NC(=O)[C@H](Cc1c[nH]cn1)NC(=O)[C@H](CCCCNC(=O)[C@@H](NC(=O)[C@H](CCCCN)NC(=O)[C@H](Cc1ccccc1)NC(=O)[C@H](CCCCNC(=O)[C@H](CC(C)C)NC(=O)[C@@H]1CCCN1C(=O)[C@H](CCCCN)NC(=O)CCS[C@@H]1O[C@H](CO)[C@H](O)[C@H](O)[C@H]1O)NC(=O)[C@H](CC(C)C)NC(=O)[C@@H]1CCCN1C(=O)[C@H](CCCCN)NC(=O)CCS[C@@H]1O[C@H](CO)[C@H](O)[C@H](O)[C@H]1O)[C@@H](C)CC)NC(=O)[C@@H](NC(=O)[C@H](CCCCN)NC(=O)[C@H](Cc1ccccc1)NC(=O)[C@H](CCCCNC(=O)[C@H](CC(C)C)NC(=O)[C@@H]1CCCN1C(=O)[C@H](CCCCN)NC(=O)CCS[C@@H]1O[C@H](CO)[C@H](O)[C@H](O)[C@H]1O)NC(=O)[C@H](CC(C)C)NC(=O)[C@@H]1CCCN1C(=O)[C@H](CCCCN)NC(=O)CCS[C@@H]1O[C@H](CO)[C@H](O)[C@H](O)[C@H]1O)[C@@H](C)CC)C(N)=O", "target": "lecA (Pseudomonas aeruginosa, UniProt Q05097)", "assay": "isothermal titration calorimetry", "conditions": "pH 7.5, 25 °C, together with: 25 mM CaCl2", "quantity": "ΔG", "value": "-8.8 ± 0.2 kcal/mol"}
{"Structure (SMILES)": "CC(=O)NC(Cc1ccc(Br)c(Cl)c1)C(=O)N[C@@H](C)C(=O)N1CCC[C@H]1C(=O)N1CCC[C@H]1C(=O)N[C@@H](CCC(=O)O)C(=O)N[C@@H](Cc1c[nH]cn1)C(=O)N[C@@H](CO)C(=O)N[C@H](C(=O)N[C@@H](C)C(N)=O)[C@@H](C)OP(=O)(O)O (stereo partly drawn)", "target": "PIM1 (Homo sapiens, UniProt P11309)", "assay": "enzyme activity, inhibitor", "conditions": "10 µM", "quantity": "inhibition", "value": "0.37%"}
{"Structure (SMILES)": "C[C@@]1(O)CC[C@H]2[C@H](CC[C@@H]3[C@@H]2CC[C@]2(C)[C@@H](C(=O)Cn4cccn4)CC[C@@H]32)C1", "target": "Membrane progestin receptor delta (Paqr6, Mus musculus, UniProt Q6TCG5)", "assay": "pPKA/PKA immunoblot", "test system": "MDA-MB-231 expressing Paqr6-GFP", "conditions": "300 nM, 20 min", "how to read": "baseline: control", "quantity": "PKA activation", "value": "98.7 ± 4.59%"}
{"Structure (SMILES)": "NCC1OC(OC(CO)C2CC(O)C(n3ccc(=O)[nH]c3=O)O2)C(O)C1O (stereo not drawn)", "target": "mraY (Aquifex aeolicus, UniProt O66465)", "assay": "isothermal titration calorimetry", "conditions": "concentration not given, wild type, together with: Mg2+", "quantity": "binding enthalpy", "value": "-15 ± 1.5 kcal/mol"}
{"Structure (SMILES)": "N=C(N)NCCC[C@H](NC(=O)[C@H](CCCNC(=N)N)NC(=O)[C@H](CCCNC(=N)N)NC(=O)[C@@H]1CCCN1C(=O)CNCCCN(CC[C@H](N)C(=O)O)C[C@H]1O[C@@H](n2cnc3c(N)ncnc32)[C@H](O)[C@@H]1O)C(=O)N[C@@H](CO)C(=O)O", "target": "N-terminal Xaa-Pro-Lys N-methyltransferase 1 (Homo sapiens, UniProt Q9BV86)", "assay": "enzyme activity, inhibitor, MALDI-MS", "conditions": "5 µM, 20 min, together with: RCC1-10 peptide", "quantity": "dimethylation", "value": "inhibited"}
{"Structure (SMILES)": "CN(C)/C=N/c1ccccc1C(F)(F)F", "target": "Amyloid-beta precursor protein, amyloid-beta 1-40 oligomers (APP, Homo sapiens, UniProt P05067)", "assay": "binding, STD NMR", "conditions": "highest STD", "quantity": "STD NMR signal", "value": "0%"}
{"Structure (SMILES)": "N[C@@H](CCC(=O)N[C@@H](CS[Se]Cc1ccc(C(=O)Nc2cc(C(F)(F)F)c(Br)c(C(F)(F)F)c2)cc1)C(=O)NCC(=O)O)C(=O)O", "target": "PTPN5 (Homo sapiens, UniProt P54829)", "assay": "enzyme activity", "conditions": "together with: pNPP, GSH 1 mM", "how to read": "baseline: IC50 PTPN5 over mPTPA", "quantity": "selectivity ratio", "value": 12}
{"Structure (SMILES)": "CN1/C(=C/C=C/C=C/C2=[N+](CCCCCC(=O)NCCCCCCCCN3[C@H]4[C@H](O)[C@@H](O)[C@H](O[C@@H]5OC[C@@H](O)[C@H](O)[C@H]5O)C[C@H]43)c3ccccc3C2(C)C)C(C)(C)c2ccccc21 (stereo partly drawn)", "target": "endo-1,4-beta-xylanase (Aspergillus aculeatus, UniProt A0A1L9WG58)", "assay": "covalent inhibitor", "conditions": "pH 5.0, together with: 4MU-β-D-xylobioside", "quantity": "kinact", "value": "0.000217 s⁻¹"}
{"Structure (SMILES)": "O=C(Cn1cc(-c2ccccc2)nn1)N[C@H]1CCOC1=O", "target": "lasR (Pseudomonas aeruginosa, UniProt P25084)", "assay": "reporter gene, agonist", "test system": "Escherichia coli, DH5α pJN105L/pSC11", "conditions": "100 µM", "how to read": "baseline: OdDHL at same concentration", "quantity": "activation", "value": "5%"}
{"Structure (SMILES)": "CC(=O)N[C@@H](CC(C)C)C(=O)N[C@@H](C)C(=O)N[C@@H](C)C(=O)NN(CCC(=O)N(C)C)C(=O)CBr", "target": "Genome polyprotein, 3C protease (Human hepatitis A virus genotype IB, UniProt P08617, C1543S)", "assay": "inhibitor", "test system": "Hepatitis A virus", "quantity": "kinact/KI", "value": "870 M⁻¹ s⁻¹"}
{"Structure (SMILES)": "CN(C)C(=O)[C@@H](NC(=O)c1cnccc1-c1ccc(C(F)(F)F)cc1)c1cccc(C(F)(F)F)c1", "target": "NKG2-D type II integral membrane protein, with MICA (KLRK1, Homo sapiens, UniProt P26718)", "assay": "cellular TR-FRET binding", "conditions": "pIC50 minus ChromLogD", "quantity": "lipophilic ligand efficiency", "value": 3.4}
{"Structure (SMILES)": "CCCc1cc(Cc2ccccc2)cc2c1NCCC2NC(=O)C(N)Cc1c(C)cc(O)cc1C (stereo not drawn)", "target": "Oprm1 (Rattus norvegicus, UniProt P33535)", "assay": "agonist", "test system": "C6 cells expressing MOR", "how to read": "baseline: DAMGO at 10 µM", "quantity": "efficacy", "value": "90%"}
{"note": "Excerpt of the above:"}
{"Structure (SMILES)": "CN1C(CCCc2ccccc2)CCC1CCCc1ccccc1 (stereo not drawn)", "target": "Slc18a2 (Rattus norvegicus, UniProt Q01827)", "assay": "dopamine uptake", "test system": "rat striatal synaptic vesicles", "conditions": "together with: [3H]dopamine", "quantity": "maximal inhibition", "value": "100%"}
{"Structure (SMILES)": "CN(C)C(=O)[C@@H](NC(=O)c1ccccc1-c1ccc(C(F)(F)F)cc1)c1cccc(C(F)(F)F)c1", "target": "NKG2-D type II integral membrane protein, with ULBP6 (KLRK1, Homo sapiens, UniProt P26718)", "assay": "cellular TR-FRET ligand displacement", "quantity": "lipophilic ligand efficiency", "value": "2.7 ± 1.1"}
{"Structure (SMILES)": "CCCc1cc(Cc2ccccc2)cc2c1NCCC2NC(=O)C(N)Cc1c(C)cc(O)cc1C (stereo not drawn)", "target": "Oprm1 (Rattus norvegicus, UniProt P33535)", "assay": "agonist", "test system": "C6 cells expressing MOR", "how to read": "baseline: DAMGO at 10 µM", "quantity": "efficacy", "value": "90%"}
